# Published values from different studies.
# Chains of the proteins cited; added tags and fusions are not shown.
# UniProt Q9P286, whole entry: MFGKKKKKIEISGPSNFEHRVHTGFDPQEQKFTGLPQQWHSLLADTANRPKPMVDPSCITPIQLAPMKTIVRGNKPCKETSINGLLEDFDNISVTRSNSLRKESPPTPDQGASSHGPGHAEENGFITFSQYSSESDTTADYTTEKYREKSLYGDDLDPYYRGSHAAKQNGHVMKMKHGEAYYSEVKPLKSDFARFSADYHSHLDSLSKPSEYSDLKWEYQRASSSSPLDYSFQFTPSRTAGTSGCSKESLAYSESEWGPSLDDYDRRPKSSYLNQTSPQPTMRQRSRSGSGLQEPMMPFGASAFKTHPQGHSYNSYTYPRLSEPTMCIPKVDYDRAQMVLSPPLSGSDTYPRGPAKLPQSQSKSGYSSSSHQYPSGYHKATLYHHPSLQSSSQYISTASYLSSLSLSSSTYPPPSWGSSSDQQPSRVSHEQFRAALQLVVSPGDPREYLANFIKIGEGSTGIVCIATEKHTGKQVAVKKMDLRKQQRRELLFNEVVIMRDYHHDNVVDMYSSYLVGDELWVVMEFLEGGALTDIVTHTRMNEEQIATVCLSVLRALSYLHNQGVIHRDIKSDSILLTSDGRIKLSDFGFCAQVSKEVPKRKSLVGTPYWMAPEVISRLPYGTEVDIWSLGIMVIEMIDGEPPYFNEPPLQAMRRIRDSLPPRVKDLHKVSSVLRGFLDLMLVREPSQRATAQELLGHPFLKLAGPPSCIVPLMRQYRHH
# Numbers after ± are the reported error.
SMILES,tested on,assay,system,setting,how to read,quantity,value
CC(C)Cc1nnc2c(C(=O)NC3c4ccccc4-c4ccccc43)cccn12,Escherichia coli,broth microdilution,MB5746 rpoZ Δ35-91 frameshift,,baseline: mutant over wild type,MIC ratio,> 32
CCCN1CCN(c2ccc3c(c2)C2CC3CCN2C(=O)OCc2ccccc2)CC1 (stereo not drawn),"benzodiazepine site, rat",radioligand binding,rat brain,,,Ki,4.77 µM
c1ccc(Nc2cccc3ccccc23)cc1,Manis javanica OBP3 Y81A,"binding, fluorescence binding",,with: 1-NPN probe,,Kd,1.46 ± 0.38 µM
O=C(Cn1c(-c2ccccn2)nc2ccccc21)Nc1ccc2ccccc2c1,Helicobacter pylori,cell growth,G27,exponentially growing culture,,minimum concentration blocking growth,60 µM
CC#C/C(=N\OC[C@H]1COCCN1)c1ccc2ncnc(Nc3ccc(OCc4cccc(F)c4)c(Cl)c3)c2c1,,tumour growth,"NCI-N87, nude mouse subcutaneous xenograft","oral, 21 days daily",,ED50,10.2 mg/kg
C1CCCC2(CC1)OOCOCOOC1(CCCCCC1)OO2,U-937,"cytotoxicity, 7-AAD flow cytometry",,,,IC50,6.88 ± 0.27 µM
Nc1ccc2nc3ccc(=O)cc-3oc2c1,Mycobacterium tuberculosis,,mc2 6206 clofazimine-resistant fbiC mutant,7 days,,MIC90,5.3 µM
O=[N+]([O-])c1ccc(N2CCN(c3ccc([N+](=O)[O-])cc3[N+](=O)[O-])CC2)c([N+](=O)[O-])c1,Staphylococcus aureus,,resistant clinical isolate,,,MIC,> 500 µg/mL
Cc1cc(N(CCCl)CCCl)ccc1C(=O)O,ACHN,"cell growth, inhibitor, MTT",,,,IC50,5.72 µg/mL
O=c1ccc2nc3ccc(OCc4ccccc4)cc3oc-2c1,Mycobacterium tuberculosis,,mc2 6206 PA-824-resistant ddn mutant,7 days,,MIC90,27 µM
CCCCCCC1c2ccc(O)cc2Oc2cc(O)ccc21,Salmonella Typhimurium,,SL1344,,,MIC,> 373 µg/mL
CCC(C)C1NC(=O)/C(=C(/C)O)C1=O (stereo not drawn),plasma membrane H+-ATPase (Spinacia oleracea),ATP hydrolysis,plasma membrane fraction,"20 µM, 10 min, preincubation, no fusicoccin, with: 14-3-3 protein",,specific activity,10 nmol Pi/mg/min
Nc1ccc(C(=O)O)c(O)c1,Mycobacterium bovis,,"BCG Tac^r10.1, thyA H147Y missense",TA-C-resistant thyA mutant,,MIC50,> 100 µM
COCOc1ccc2nc3ccc(=O)cc-3oc2c1,Mycobacterium tuberculosis,,mc2 6206 bedaquiline-resistant MmpL5 regulator mutant,7 days,,MIC90,14.3 µM
Cc1ccc(S(=O)(=O)N(C)CC(=O)N(Cc2ccc(C3CCCCC3)cc2)c2ccc(C(=O)O)c(O)c2)cc1,,,"MDA-MB-231 xenograft, athymic nude mouse","intravenous, 3 mg/kg, 17 days, every 2-3 days",baseline: vehicle,tumour growth,decreased
Cc1cc(C(=O)O)ccc1-c1c2ccc(=O)cc-2oc2cc(OCc3ccc([N+](=O)[O-])o3)ccc12,Mycobacterium tuberculosis,,mc2 6206 clofazimine-resistant fbiC mutant,7 days,,MIC90,242 µM
CCN1CCN(Cc2ccc(NC(=O)c3ccc(C)c(/C=C/c4cnc5[nH]ccc5c4OC)c3)cc2C(F)(F)F)CC1,"PAK5 (Homo sapiens, UniProt Q9P286)",inhibitor,,5 µM,baseline: no inhibitor,log2 fold change,0.054
O=c1ccc2nc3ccc(O)cc3oc-2c1,Mycobacterium tuberculosis,,mc2 6206 PA-824-resistant ddn mutant,7 days,,MIC90,> 256 µM
CC1(C)CCC(Cc2cc(O)c(-c3ccccc3)c(=O)[nH]2)CC1,Mycobacterium tuberculosis,,inhA S94A resistant mutant,,,MIC50,0.78 µM
CSc1nc(Cl)cc(Sc2nnc(-c3cc(C(F)(F)F)cc(C(F)(F)F)c3)[nH]2)n1,Escherichia coli,,NR698,"25 µM, 2 h, 37 °C, no membrane permeabilizer",,CFU reduction,~4 log units
COCCOc1ccc2nc3ccc(=O)c(I)c-3oc2c1,Mycobacterium tuberculosis,,mc2 6206 bedaquiline-resistant MmpL5 regulator mutant,7 days,,MIC90,> 256 µM

# Excerpt of the above:
SMILES,tested on,assay,system,setting,how to read,quantity,value
Cc1cc(N(CCCl)CCCl)ccc1C(=O)O,ACHN,"cell growth, inhibitor, MTT",,,,IC50,5.72 µg/mL
CC1(C)CCC(Cc2cc(O)c(-c3ccccc3)c(=O)[nH]2)CC1,Mycobacterium tuberculosis,,inhA S94A resistant mutant,,,MIC50,0.78 µM
